Measurements collected from several papers.
Lines come from different studies, so protocols differ. Several values in a cell are separate wells, animals, samples, runs or records. ± gives the spread as reported.

| Structure (SMILES) | test | test system | setting | tissue uptake |
| --- | --- | --- | --- | --- |
| CCCC[C@H](NC(=O)CCCCCCCNC(=O)CN1CCN(CC(=O)O)CCN(CC(=O)O)CC1)C(=O)N[C@H]1CC(=O)NCCCC[C@@H](C(N)=O)NC(=O)[C@H](Cc2c[nH]c3ccccc23)NC(=O)[C@H](CCCNC(=N)N)NC(=O)[C@@H](Cc2ccccc2)NC(=O)[C@H](Cc2c[nH]cn2)NC1=O [fluorine-18 labelled] | – | C57 mice B16-F10 melanoma, muscle | intravenous, 0.37 MBq, 1 h | 0.01 ± 0.01 %ID/g |
| CCCC[C@H](NC(=O)CNC(=O)CNC(=O)[C@H](CCCCNC(=O)C(C)c1ccc(CC(C)C)cc1)NC(=O)CN1CCN(CC(=O)O)CCN(CC(=O)O)CCN(CC(=O)O)CC1)C(=O)N[C@H]1CC(=O)NCCCC[C@@H](C(N)=O)NC(=O)[C@H](Cc2c[nH]c3ccccc23)NC(=O)[C@H](CCCNC(=N)N)NC(=O)[C@@H](Cc2ccccc2)NC(=O)[C@H](Cc2c[nH]cn2)NC1=O (some centres unmarked) [lutetium-177 labelled] | – | C57 mice, tumour-bearing, bone | 2 h | 0.75 ± 0.33 %ID/g |
| CC(C)C[C@H](NC(=O)[C@@H](CCCCNC(=O)[C@@H](Cc1ccccc1)NC(=O)CCCCCCCNC(=O)CN1CCN(CC(=O)O)CCN(CC(=O)O)CCN(CC(=O)O)CC1)NC(=O)[C@H](Cc1ccc(O)cc1)NC(=O)[C@H](CO)NC(=O)[C@H](Cc1c[nH]c2ccccc12)NC(=O)[C@H](Cc1c[nH]cn1)NC(=O)[C@@H]1CCC(=O)N1)C(=O)N[C@@H](CCCNC(=N)N)C(=O)N1CCC[C@H]1C(=O)NCC(N)=O [indium-111 labelled] | biodistribution | male athymic nude mice, DU-145 prostate cancer xenograft, heart | intravenous, 0.037 MBq, 4 h post-injection | 0.12 ± 0.09 %ID/g |
| COc1ccc(Nc2nc(Nc3ccc(OCCOCC[18F])cc3)ncc2Br)cc1 | – | ICR mice, S180 tumour, stomach | intravenous, 370 kBq, 15 min | 0.51 ± 0.04 %ID |
| CCCC[C@H](NC(=O)COCCOCCNC(=O)CN1CCN(CC(=O)O)CCN(CC(=O)O)CC1)C(=O)N[C@H]1CC(=O)NCCCC[C@@H](C(N)=O)NC(=O)[C@H](Cc2c[nH]c3ccccc23)NC(=O)[C@H](CCCNC(=N)N)NC(=O)[C@@H](Cc2ccccc2)NC(=O)[C@H](Cc2c[nH]cn2)NC1=O [fluorine-18 labelled] | – | C57 mice B16-F10 melanoma, pancreas | intravenous, 0.37 MBq, 2 h | 0.56 ± 1.11 %ID/g |
| N#C[C@@H]1CCCN1C(=O)CNC(=O)c1ccnc2ccc(OCCCN3CCN(C(=O)CCc4ccc5c(c4)CN4CCN(Cc6cc(CCC(=O)O)ccc6O)CC(=O)[O][Al-]([18F])([O]C(=O)C4)[O]5)CC3)cc12 (some centres unmarked) | – | BALB/c nude mice, U-87 MG xenograft, brain | 2 h | 0.07 ± 0.02 %ID/g |
| O=C(NCC1OC2CCC=CCCC2O1)c1ccc(COCCOCCOCC[18F])cc1 (centres unmarked) | – | healthy female BALB/c nude mice, bone | intravenous, 7.4 MBq per mouse, 15 min | 1.9 ± 0.8 %ID/g |
| COc1ccc2c(c1)C(C)(C)C(/C=C/C1=C(Oc3ccc(C(=O)NCCCCOc4cc(CN(Cc5ccccn5)Cc5ccccn5)cc(CN(Cc5ccccn5)Cc5ccccn5)c4)cc3)C(=C/C=C3/N(CCCCS(=O)(=O)[O-])c4ccc(OC)cc4C3(C)C)CCC1)=[N+]2CCCCS(=O)(=O)[O-].O=[N+]([O-])[O-].O=[N+]([O-])[O-].[99Tc+].[C-]#[O+].[C-]#[O+].[C-]#[O+].[Zn+2] | – | BALB/c mice, healthy, small intestine with contents | 12 h post-injection | 1.54 %ID/g and 1.61 %ID/g and 3.2 %ID/g |
| O=C(O)CCCOc1ccc([18F])cc1-c1cc(-c2ccccc2C(F)(F)F)n(-c2ccccc2)n1 | – | mice, small intestine | intravenous, 180 min | 3.34 ± 0.46 %ID/g |
| CCCC[C@H](NC(=O)CNC(=O)CNC(=O)[C@H](CCCCNC(=O)[C@H](CC(=O)O)NC(=O)C(C)c1ccc(CC(C)C)cc1)NC(=O)CN1CCN(CC(=O)O)CCN(CC(=O)O)CCN(CC(=O)O)CC1)C(=O)N[C@H]1CC(=O)NCCCC[C@@H](C(N)=O)NC(=O)[C@H](Cc2c[nH]c3ccccc23)NC(=O)[C@H](CCCNC(=N)N)NC(=O)[C@@H](Cc2ccccc2)NC(=O)[C@H](Cc2c[nH]cn2)NC1=O (some centres unmarked) [lutetium-177 labelled] | – | C57 mice, tumour-bearing, stomach | intravenous, 0.037 MBq, 4 h | 1.12 ± 0.59 %ID/g |
| N#C[C@@H]1CCCN1C(=O)CNC(=O)c1ccnc2ccc(OCCCN3CCN(C(=O)CCc4ccc5c(c4)CN4CCN6CC(=O)[O][68Ga-]([O]C(=O)C4)([O]5)[O]c4ccc(CCC(=O)N5CCN(CCCOc7ccc8nccc(C(=O)NCC(=O)N9CCC[C@H]9C#N)c8c7)CC5)cc4C6)CC3)cc12 | – | BALB/c nude mice, U-87 MG tumour, gallbladder | 60 min post-injection | 53.5 ± 16.9 %ID/g |
| O=C([O-])CN1CCN(CC(=O)[O-])CCN(CC(=O)NC[C@H]2CC[C@H](C(=O)N[C@H](Cc3cnc4ccccc4c3)C(=O)NCCCC[C@H](NC(=O)N[C@@H](CCC(=O)O)C(=O)O)C(=O)O)CC2)CCN(CC(=O)[O-])CC1.[64Cu+2] | ex vivo gamma counting | 22Rv1 tumour-bearing mice, muscle | intravenous, 0.74 MBq, 6 h post-injection | 1.56 %ID/g |
| COc1ccc(Nc2nc(Nc3ccc(OCCOCCOCC[18F])cc3)ncc2Br)cc1 | – | ICR mice, S180 tumour-bearing, liver | intravenous, 370 kBq, 30 min | 3.74 ± 0.11 %ID/g |
| Cc1cc(C)n(CCN(CCN)CCCCCCNC(=O)[C@@H](N)Cc2c[nH]cn2)n1.[99Tc+].[C-]#[O+].[C-]#[O+].[C-]#[O+] | – | BALB/c nude mice, A549 xenograft, liver | intravenous, 15 min | 21.1 ± 1.96 %IA/g |
| N#C[C@@H]1CCCN1C(=O)CNC(=O)c1ccnc2ccc(OCCCN3CCN(C(=O)CCc4ccc(O)c(CN5CCN6CC(=O)[O][Al-]([18F])([O]C(=O)C5)[O]c5ccc(CCC(=O)N7CCN(CCCOc8ccc9nccc(C(=O)NCC(=O)N%10CCC[C@H]%10C#N)c9c8)CC7)cc5C6)c4)CC3)cc12 (some centres unmarked) | – | BALB/c nude mice, U-87 MG xenograft, lung | 2 h | 3.41 ± 0.54 %ID/g |
| O=C(NCC1OC2CCC=CCCC2O1)c1ccc([18F])nc1 (centres unmarked) | – | healthy female BALB/c nude mice, kidneys | intravenous, 7.4 MBq per mouse, 2 min | 12.1 ± 1.6 %ID/g |
| Cc1cc(C)n(CCN(CCN)CCCCCCNC(=O)[C@@H](N)Cc2c[nH]c3ccccc23)n1.[99Tc+].[C-]#[O+].[C-]#[O+].[C-]#[O+] | – | BALB/c nude mice, A549 xenograft, liver | intravenous, 4 h | 22.4 ± 3.23 %IA/g |

Excerpt of the above:
| Structure (SMILES) | test | test system | setting | tissue uptake |
| --- | --- | --- | --- | --- |
| Cc1cc(C)n(CCN(CCN)CCCCCCNC(=O)[C@@H](N)Cc2c[nH]cn2)n1.[99Tc+].[C-]#[O+].[C-]#[O+].[C-]#[O+] | – | BALB/c nude mice, A549 xenograft, liver | intravenous, 15 min | 21.1 ± 1.96 %IA/g |
| O=C(NCC1OC2CCC=CCCC2O1)c1ccc(COCCOCCOCC[18F])cc1 (centres unmarked) | – | healthy female BALB/c nude mice, bone | intravenous, 7.4 MBq per mouse, 15 min | 1.9 ± 0.8 %ID/g |
